{"data": "Experimental data from different studies", "note": "A part holds a random share of what one study measured.", "sequence of UniProt Q16513 (whole entry, looked up)": "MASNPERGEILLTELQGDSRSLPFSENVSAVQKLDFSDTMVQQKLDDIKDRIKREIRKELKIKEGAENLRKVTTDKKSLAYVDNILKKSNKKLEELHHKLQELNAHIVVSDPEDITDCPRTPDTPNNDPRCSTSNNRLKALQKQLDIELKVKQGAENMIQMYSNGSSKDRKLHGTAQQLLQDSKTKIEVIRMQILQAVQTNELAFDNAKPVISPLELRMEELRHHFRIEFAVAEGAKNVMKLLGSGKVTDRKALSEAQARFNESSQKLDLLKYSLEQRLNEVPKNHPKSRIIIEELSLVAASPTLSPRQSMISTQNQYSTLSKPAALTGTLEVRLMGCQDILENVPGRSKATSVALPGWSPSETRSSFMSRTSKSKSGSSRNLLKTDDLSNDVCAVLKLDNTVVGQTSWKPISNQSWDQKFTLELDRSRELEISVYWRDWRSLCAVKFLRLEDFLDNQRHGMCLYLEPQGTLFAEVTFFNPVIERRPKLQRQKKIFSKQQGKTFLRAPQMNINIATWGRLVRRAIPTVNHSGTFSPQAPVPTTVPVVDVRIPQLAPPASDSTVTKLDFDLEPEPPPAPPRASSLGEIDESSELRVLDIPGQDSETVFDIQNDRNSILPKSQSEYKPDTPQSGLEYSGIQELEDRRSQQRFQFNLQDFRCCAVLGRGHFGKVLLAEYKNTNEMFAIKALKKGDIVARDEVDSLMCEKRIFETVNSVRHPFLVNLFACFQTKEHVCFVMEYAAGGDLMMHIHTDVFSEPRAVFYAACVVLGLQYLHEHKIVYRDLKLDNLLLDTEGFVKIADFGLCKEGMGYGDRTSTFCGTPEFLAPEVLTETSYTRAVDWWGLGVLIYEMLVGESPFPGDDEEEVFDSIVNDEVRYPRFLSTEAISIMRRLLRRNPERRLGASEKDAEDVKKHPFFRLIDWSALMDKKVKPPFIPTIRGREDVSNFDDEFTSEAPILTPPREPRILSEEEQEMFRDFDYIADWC", "sequence of UniProt Q6XUX3 (whole entry, looked up)": "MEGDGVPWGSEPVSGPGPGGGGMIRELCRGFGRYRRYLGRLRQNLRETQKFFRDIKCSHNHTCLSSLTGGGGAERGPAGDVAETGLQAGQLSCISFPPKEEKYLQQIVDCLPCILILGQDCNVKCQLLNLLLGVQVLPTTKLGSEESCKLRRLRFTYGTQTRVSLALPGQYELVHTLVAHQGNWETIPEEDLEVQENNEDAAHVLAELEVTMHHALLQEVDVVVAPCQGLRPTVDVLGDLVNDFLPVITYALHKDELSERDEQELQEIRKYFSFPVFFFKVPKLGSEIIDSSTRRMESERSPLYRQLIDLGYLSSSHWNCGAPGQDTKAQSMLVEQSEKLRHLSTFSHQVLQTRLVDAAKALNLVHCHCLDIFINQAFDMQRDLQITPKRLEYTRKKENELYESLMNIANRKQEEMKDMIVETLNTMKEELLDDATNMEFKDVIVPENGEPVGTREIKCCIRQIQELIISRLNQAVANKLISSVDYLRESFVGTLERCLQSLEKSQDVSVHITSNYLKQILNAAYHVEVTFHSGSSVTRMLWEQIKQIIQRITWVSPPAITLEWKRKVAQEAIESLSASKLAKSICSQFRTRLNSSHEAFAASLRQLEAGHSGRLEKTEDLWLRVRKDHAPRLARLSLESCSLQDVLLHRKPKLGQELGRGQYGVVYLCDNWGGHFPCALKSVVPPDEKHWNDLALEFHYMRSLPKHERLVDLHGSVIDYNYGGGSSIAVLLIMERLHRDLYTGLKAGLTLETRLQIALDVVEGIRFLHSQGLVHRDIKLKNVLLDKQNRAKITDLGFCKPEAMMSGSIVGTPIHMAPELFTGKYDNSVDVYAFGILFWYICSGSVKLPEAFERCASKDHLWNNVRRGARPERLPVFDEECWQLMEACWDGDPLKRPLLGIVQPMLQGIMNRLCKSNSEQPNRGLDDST", "sequence of UniProt Q15303 (whole entry, looked up)": "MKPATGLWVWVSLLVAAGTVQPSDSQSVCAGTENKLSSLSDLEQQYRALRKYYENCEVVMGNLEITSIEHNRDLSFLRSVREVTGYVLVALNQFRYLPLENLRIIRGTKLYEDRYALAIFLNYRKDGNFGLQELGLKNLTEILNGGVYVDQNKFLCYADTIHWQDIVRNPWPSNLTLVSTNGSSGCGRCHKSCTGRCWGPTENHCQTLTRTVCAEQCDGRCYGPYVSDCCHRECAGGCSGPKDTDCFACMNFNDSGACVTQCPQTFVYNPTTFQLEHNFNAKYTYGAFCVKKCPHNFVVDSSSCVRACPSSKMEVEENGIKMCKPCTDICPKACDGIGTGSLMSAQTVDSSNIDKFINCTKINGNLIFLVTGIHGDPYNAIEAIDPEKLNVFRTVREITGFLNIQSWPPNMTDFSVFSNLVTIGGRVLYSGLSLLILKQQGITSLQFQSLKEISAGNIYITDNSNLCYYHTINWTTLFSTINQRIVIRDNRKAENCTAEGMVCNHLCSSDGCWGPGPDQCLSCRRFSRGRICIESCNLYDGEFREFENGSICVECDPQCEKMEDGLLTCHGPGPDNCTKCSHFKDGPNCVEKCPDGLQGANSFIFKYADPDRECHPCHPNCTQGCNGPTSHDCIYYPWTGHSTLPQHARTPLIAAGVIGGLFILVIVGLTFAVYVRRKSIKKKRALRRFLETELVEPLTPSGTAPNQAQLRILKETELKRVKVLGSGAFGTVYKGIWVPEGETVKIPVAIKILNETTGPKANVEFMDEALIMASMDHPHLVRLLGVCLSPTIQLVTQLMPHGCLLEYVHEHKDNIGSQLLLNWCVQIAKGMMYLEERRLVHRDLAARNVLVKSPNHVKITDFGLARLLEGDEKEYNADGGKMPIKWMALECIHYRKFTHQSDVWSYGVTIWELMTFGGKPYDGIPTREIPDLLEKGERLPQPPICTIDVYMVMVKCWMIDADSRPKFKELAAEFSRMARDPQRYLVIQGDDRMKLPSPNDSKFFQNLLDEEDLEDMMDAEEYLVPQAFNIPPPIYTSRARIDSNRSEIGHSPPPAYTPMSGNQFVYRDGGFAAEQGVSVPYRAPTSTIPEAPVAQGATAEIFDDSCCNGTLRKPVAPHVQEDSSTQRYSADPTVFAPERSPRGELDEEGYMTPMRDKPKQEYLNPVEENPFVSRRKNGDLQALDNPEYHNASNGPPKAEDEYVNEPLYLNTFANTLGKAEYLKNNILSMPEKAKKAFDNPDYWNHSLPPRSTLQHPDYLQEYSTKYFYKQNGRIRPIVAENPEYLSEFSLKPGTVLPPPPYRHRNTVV", "sequence of UniProt P49137 (whole entry, looked up)": "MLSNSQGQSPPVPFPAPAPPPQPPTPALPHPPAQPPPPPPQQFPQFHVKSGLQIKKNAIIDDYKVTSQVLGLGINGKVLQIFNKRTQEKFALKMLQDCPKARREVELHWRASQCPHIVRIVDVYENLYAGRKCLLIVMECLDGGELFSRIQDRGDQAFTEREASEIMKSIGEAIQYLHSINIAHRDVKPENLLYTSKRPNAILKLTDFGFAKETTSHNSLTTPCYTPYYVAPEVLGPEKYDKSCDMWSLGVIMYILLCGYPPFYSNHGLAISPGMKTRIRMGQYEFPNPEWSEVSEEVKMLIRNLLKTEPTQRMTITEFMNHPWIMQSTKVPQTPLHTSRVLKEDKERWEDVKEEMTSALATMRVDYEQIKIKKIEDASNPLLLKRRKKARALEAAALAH", "sequence of UniProt P49674 (whole entry, looked up)": "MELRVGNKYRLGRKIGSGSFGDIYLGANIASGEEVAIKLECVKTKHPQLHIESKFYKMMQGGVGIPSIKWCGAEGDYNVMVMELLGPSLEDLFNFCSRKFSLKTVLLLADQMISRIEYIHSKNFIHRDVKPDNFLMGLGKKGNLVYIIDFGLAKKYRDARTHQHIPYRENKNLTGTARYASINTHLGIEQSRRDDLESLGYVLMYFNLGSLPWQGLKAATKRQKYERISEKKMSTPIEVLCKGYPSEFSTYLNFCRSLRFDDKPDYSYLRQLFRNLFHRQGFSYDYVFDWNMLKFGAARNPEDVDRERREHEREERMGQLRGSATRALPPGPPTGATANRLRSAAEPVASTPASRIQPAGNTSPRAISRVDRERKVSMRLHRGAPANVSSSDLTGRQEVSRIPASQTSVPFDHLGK", "sequence of UniProt P11802 (whole entry, looked up)": "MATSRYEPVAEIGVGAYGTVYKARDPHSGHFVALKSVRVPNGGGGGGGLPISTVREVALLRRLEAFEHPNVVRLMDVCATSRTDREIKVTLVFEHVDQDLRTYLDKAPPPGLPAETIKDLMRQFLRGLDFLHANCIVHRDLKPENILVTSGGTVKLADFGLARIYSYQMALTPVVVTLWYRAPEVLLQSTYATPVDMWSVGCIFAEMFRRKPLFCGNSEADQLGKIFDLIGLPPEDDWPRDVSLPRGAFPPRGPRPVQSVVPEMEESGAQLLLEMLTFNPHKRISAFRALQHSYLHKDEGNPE"}
{"data": "Study 1", "species": "human", "sample": "microsomes or S9", "concentration": "2 µM", "time": "0.5 h"}
{"SMILES": "COC(C(=O)Nc1ccc(S(=O)(=O)Nc2cccc(Cl)c2Cl)cc1)c1ccccc1 (centres unmarked)", "remaining compound [%]": 51.1}
{"SMILES": "COCc1cc(C)nc2sc(C3=NC(C)(C)Cc4cc(OC)c(OC)cc43)c(N)c12", "remaining compound [%]": 1.43}
{"SMILES": "COc1ccc(C(C)Nc2cncc(-c3nncn3C)c2)cc1F (centres unmarked)", "remaining compound [%]": "> 99.9"}
{"SMILES": "O=C(Cn1cc(-c2ccccc2)ncc1=O)NCCn1ccc2ccc(Br)cc21", "remaining compound [%]": 5.11}
{"SMILES": "CC1CC(=O)NN=C1c1ccc(-n2ccnc2)c(F)c1 (centres unmarked)", "remaining compound [%]": 105}
{"SMILES": "Cc1ccc(S(=O)(=O)n2cc(Br)c3c(N4CCC(O)CC4)ncnc32)cc1", "remaining compound [%]": 38.7}
{"SMILES": "CS(=O)(=O)N(Cc1ccco1)Cc1ccc(C(=O)O)o1", "remaining compound [%]": 96.5}
{"SMILES": "O=C(NCC1CCN(c2ccc(F)cc2)C1)C1CC(O)CN1 (centres unmarked)", "remaining compound [%]": 96.6}
{"SMILES": "CCCNC(=O)C1CN(CC(=O)Nc2ccccc2C(=O)NCc2ccccc2)c2ccccc2O1 (centres unmarked)", "remaining compound [%]": 2.98}
{"SMILES": "O=C(Nc1nc2ccc(F)cn2n1)NC1C2CCOC2C12CCC2 (centres unmarked)", "remaining compound [%]": 61.7}
{"SMILES": "Fc1ccc(-n2cc(C3CCCCN3)nn2)cc1Cl (centres unmarked)", "remaining compound [%]": 84.5}
{"SMILES": "COCCNC(=O)C(c1ccc(Cl)cc1)N(CCOC)C(=O)CCC(=O)Nc1ccccn1 (centres unmarked)", "remaining compound [%]": 20.6}
{"SMILES": "NS(=O)(=O)c1ccc(CCNc2nc3c(S(=O)(=O)c4ccccc4)nnn3c3ccccc23)cc1", "remaining compound [%]": 14.6}
{"SMILES": "Brc1ccc2c(c1)CCN2Cc1cnc(-c2ccncc2)s1", "remaining compound [%]": 60.8}
{"SMILES": "CC(C)S(=O)(=O)CCCn1cc(Br)ccc1=O", "remaining compound [%]": "> 99.9"}
{"SMILES": "Cc1cccc(-n2nc(-c3cnn(C)c3C)c(Cl)c2-c2cnn(C)c2C)c1", "remaining compound [%]": 1.14}
{"SMILES": "O=c1c(-c2nc3ccccc3nc2O)c[nH]n1-c1ccccc1", "remaining compound [%]": 44.6}
{"SMILES": "NS(=O)(=O)c1ccc(-c2nc3cscc3c(=O)[nH]2)cc1", "remaining compound [%]": 54.8}
{"SMILES": "CC(C)N(C(=O)COC(=O)c1ccc(C(C)(C)C)cc1)C(C)C", "remaining compound [%]": "< 1"}
{"SMILES": "Cc1ccc2c(c1)NC(=O)c1cc(S(=O)(=O)N(C)C)c(Oc3ccccc3Br)cc1O2", "remaining compound [%]": 0.777}
{"SMILES": "Cc1nc2c(NC3CCN(S(=O)(=O)C4CC4)CC3)cccn2n1", "remaining compound [%]": "> 100"}
{"data": "Study 2", "Compound": "N#Cc1ccc(Nc2ccc3[nH]c(=O)[nH]c3c2)c(Cl)c1", "method": "competition with immobilised ligand", "concentration": "1 µM"}
{"target": "Cyclin-dependent kinase 2 (CDK2, Homo sapiens, UniProt P24941)", "read-out": "cell-free assay", "remaining binding": "93%"}
{"target": "Tyrosine-protein kinase Lyn (LYN, Homo sapiens, UniProt P07948)", "read-out": "cell-free assay", "remaining binding": "78%"}
{"target": "Receptor tyrosine-protein kinase erbB-4 (ERBB4, Homo sapiens, UniProt Q15303)", "read-out": "cell-free assay", "remaining binding": "100%"}
{"target": "MAP kinase-activated protein kinase 2 (MAPKAPK2, Homo sapiens, UniProt P49137)", "read-out": "cell-free assay", "remaining binding": "100%"}
{"target": "Cyclin-dependent kinase 4, with cyclin D3 (CDK4, Homo sapiens, UniProt P11802)", "read-out": "cell-free assay", "remaining binding": "91%"}
{"target": "Receptor-type tyrosine-protein kinase FLT3 (FLT3, Homo sapiens, UniProt P36888, K663Q)", "read-out": "cell-free assay", "remaining binding": "92%"}
{"target": "Receptor-type tyrosine-protein kinase FLT3 (FLT3, Homo sapiens, UniProt P36888, ITD)", "read-out": "cell-free assay", "remaining binding": "100%"}
{"target": "MAP kinase-interacting serine/threonine-protein kinase 1 (MKNK1, Homo sapiens, UniProt Q9BUB5)", "read-out": "cell-free assay", "remaining binding": "100%"}
{"target": "Dual serine/threonine and tyrosine protein kinase (DSTYK, Homo sapiens, UniProt Q6XUX3)", "read-out": "cell-free assay", "remaining binding": "75%"}
{"target": "Serine/threonine-protein kinase RIO3 (RIOK3, Homo sapiens, UniProt O14730)", "read-out": "cell-free assay", "remaining binding": "100%"}
{"target": "Myosin-IIIb (MYO3B, Homo sapiens, UniProt Q8WXR4)", "read-out": "binding", "remaining binding": "100%"}
{"target": "Casein kinase I isoform epsilon (CSNK1E, Homo sapiens, UniProt P49674)", "read-out": "cell-free assay", "remaining binding": "94%"}
{"target": "Serine/threonine-protein kinase N2 (PKN2, Homo sapiens, UniProt Q16513)", "read-out": "cell-free assay", "remaining binding": "76%"}
{"target": "Serine/threonine-protein kinase WNK4 (WNK4, Homo sapiens, UniProt Q96J92)", "read-out": "cell-free assay", "remaining binding": "100%"}
{"target": "Calcium/calmodulin-dependent protein kinase type II subunit beta (CAMK2B, Homo sapiens, UniProt Q13554)", "read-out": "cell-free assay", "remaining binding": "91%"}
{"target": "ALK tyrosine kinase receptor (ALK, Homo sapiens, UniProt Q9UM73, C1156Y)", "read-out": "cell-free assay", "remaining binding": "100%"}
{"data": "Study 3", "target": "PABPC1L2, full length, GST fusion (mouse, UniProt A0ABA7IW68)", "method": "RNAcompete", "molecule type": "RNA", "sample": "in vitro", "concentration": "20 nM", "setting": "7-mer, probes averaged, single round", "reference": "mean of 7-mers", "direction": "higher = stronger binding", "Residues (chain)": "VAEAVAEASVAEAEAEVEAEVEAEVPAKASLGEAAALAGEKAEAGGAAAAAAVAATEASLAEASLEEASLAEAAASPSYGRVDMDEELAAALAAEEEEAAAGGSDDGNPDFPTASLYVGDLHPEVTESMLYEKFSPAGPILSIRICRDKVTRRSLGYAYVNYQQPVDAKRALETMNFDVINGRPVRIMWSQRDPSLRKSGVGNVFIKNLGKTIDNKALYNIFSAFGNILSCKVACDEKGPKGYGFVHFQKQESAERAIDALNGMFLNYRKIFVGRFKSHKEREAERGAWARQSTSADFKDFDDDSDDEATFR"}
{"Oligonucleotide": "UAGUUUA", "7-mer Z-score": -0.322}
{"Oligonucleotide": "ACUGAAC", "7-mer Z-score": -0.101}
{"Oligonucleotide": "GGCGGUU", "7-mer Z-score": 0.0388}
{"Oligonucleotide": "GACCAAC", "7-mer Z-score": -0.0536}
{"Oligonucleotide": "GUUGUCA", "7-mer Z-score": -0.345}
{"Oligonucleotide": "UGGACAG", "7-mer Z-score": 0.075}
{"Oligonucleotide": "CAAACUU", "7-mer Z-score": 0.0787}
{"Oligonucleotide": "CGAGCGC", "7-mer Z-score": -0.282}
{"data": "Study 4", "target": "Transcriptional repressor CTCF (CTCF, Homo sapiens, UniProt P49711, residues 1-727, full length assumed)", "method": "protein-binding microarray", "molecule type": "double-stranded DNA, one strand shown", "sample": "in vitro", "concentration": "not given", "setting": "k-mer, scored over probes, only values ≥0.25", "direction": "higher = stronger binding", "sequence of UniProt P49711 (whole entry, looked up)": "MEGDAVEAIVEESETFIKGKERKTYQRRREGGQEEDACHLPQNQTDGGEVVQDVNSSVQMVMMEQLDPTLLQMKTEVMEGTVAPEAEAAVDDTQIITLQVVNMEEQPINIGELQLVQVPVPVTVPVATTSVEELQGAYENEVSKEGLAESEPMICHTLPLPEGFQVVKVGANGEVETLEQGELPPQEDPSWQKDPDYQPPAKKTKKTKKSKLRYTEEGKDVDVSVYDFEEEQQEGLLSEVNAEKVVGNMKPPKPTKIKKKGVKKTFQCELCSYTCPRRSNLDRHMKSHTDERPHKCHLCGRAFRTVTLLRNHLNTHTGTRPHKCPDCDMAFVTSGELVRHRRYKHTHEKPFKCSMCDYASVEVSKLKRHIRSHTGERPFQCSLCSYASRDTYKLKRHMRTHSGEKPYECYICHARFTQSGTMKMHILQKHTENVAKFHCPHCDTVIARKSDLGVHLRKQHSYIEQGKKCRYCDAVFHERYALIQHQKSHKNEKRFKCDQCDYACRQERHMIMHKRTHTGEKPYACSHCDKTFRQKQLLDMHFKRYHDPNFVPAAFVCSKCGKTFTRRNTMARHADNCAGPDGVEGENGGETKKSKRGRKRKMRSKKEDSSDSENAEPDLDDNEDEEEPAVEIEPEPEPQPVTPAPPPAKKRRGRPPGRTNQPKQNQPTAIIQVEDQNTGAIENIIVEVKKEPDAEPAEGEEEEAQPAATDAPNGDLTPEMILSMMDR"}
{"Oligonucleotide": "GCTGCAAA", "E-score": 0.284}
{"Oligonucleotide": "ATGCAATA", "E-score": 0.324}
{"Oligonucleotide": "ATTTTTGC", "E-score": 0.294}
{"Oligonucleotide": "ATGGTGAA", "E-score": 0.277}
{"Oligonucleotide": "GTGTCATA", "E-score": 0.291}
{"Oligonucleotide": "AATACCAC", "E-score": 0.264}
{"Oligonucleotide": "CAATATAA", "E-score": 0.338}
{"Oligonucleotide": "TAATCGTA", "E-score": 0.273}
{"note": "For quick reference, copied from above (study 2):"}
{"target": "Tyrosine-protein kinase Lyn (LYN, Homo sapiens, UniProt P07948)", "read-out": "cell-free assay", "remaining binding": "78%"}
{"target": "Receptor tyrosine-protein kinase erbB-4 (ERBB4, Homo sapiens, UniProt Q15303)", "read-out": "cell-free assay", "remaining binding": "100%"}
{"target": "MAP kinase-activated protein kinase 2 (MAPKAPK2, Homo sapiens, UniProt P49137)", "read-out": "cell-free assay", "remaining binding": "100%"}
